Results gathered from unrelated publications.
Protocols differ between the studies behind these lines. “And” joins repeats or separate records; there may be more than shown.
Target: Receptor-interacting serine/threonine-protein kinase 2 (RIPK2, Homo sapiens, UniProt O43353)

Structure (SMILES)	assay	test system	setting	scale	measurement	value
CNC1C[S+]2CC[S+]3CC[S+](C1)[Ru-4]321([N]=C=S)[n]2c3ccc(OC)cc3c3c4c(c5cc(F)c[n+]1c5c32)C(=O)NC4=O (centres unmarked)	KinomeScan		0.1 µM	relative to: untreated	remaining binding	100%
COc1c(OCCCN2CCOCC2)ccc2c1N=C(NC(=O)c1cnc(N)nc1)N1CCN=C21	kinase activity, inhibitor		1 µM	relative to: untreated control	remaining activity	111%
N[C@H]1CC[C@H](Nc2nccc(-c3cccnc3Oc3ccc(NC(=O)NC4CC4)c4ccccc34)n2)CC1	kinobead competition pulldown	HEK293/HCT116 lysate mixture	10 µM, 1 h, 4 °C	lower = stronger competition	log2 LFQ intensity	22.1 and 18.9 and 21.9
Nc1ncc(-c2cc(-c3cnn(CC(F)(F)F)c3)ncc2F)nc1C(=O)NC1CNCC(F)C1 (centres unmarked)	enzyme activity		1 µM	relative to: DMSO control	remaining activity	77.8%
CC(C)=CC1OC(C)(C)C2C=C3C(=O)C(Cl)=CC(O)C3C3C(O)C4OC4C(=O)C132 (centres unmarked)	cell-free assay, competition with immobilised ligand		10 µM		remaining binding	100%
COc1c(Cl)cccc1Nc1c(-c2ccncc2C#C[C@@]2(C)CCCN2C(=O)/C=C/CN(C)C)[nH]c2c1C(=O)NCC2	binding, competition with immobilised ligand		3 µM		remaining binding	73%
Cc1ccc(-c2c(/C=C(\C#N)C(=O)NC(C)C)n(CCCO)c3ncnc(N)c23)cc1	cell-free assay, competition with immobilised ligand		1 µM		remaining binding	9.4%
C=CC(=O)Nc1cccc(-c2cnc3[nH]cc(C(=O)NC(C)(C)C)c3n2)c1	enzyme activity, inhibitor		0.1 µM		inhibition	2%
O=C(Cc1ccc(OCc2ccccc2)cc1)NC1(C(=O)O)CCN(C(=O)c2ccc(-c3cccc(Cl)c3)cc2)CC1	enzyme activity, inhibitor		10 µM		activity vs control	120%
COc1cc(Nc2nccc(-c3cnn4nc(OC)ccc34)n2)cc(C(F)(F)F)c1	binding, competition with immobilised ligand		1 µM		remaining binding	88%
CCN1CCN(Cc2ccc(NC(=O)c3ccc(C)c(NC(=O)c4cncc(-c5cccs5)c4)c3)cc2C(F)(F)F)CC1	binding, competition with immobilised ligand		1 µM		remaining binding	16%
CCn1cc(C(=O)O)c(=O)c2c(N)c(F)c(NC3CCCCC3)cc21	kinase activity		0.1 µM, with: ATP at Km		inhibition	2.9%
NC(=O)[C@@H](O)C[C@H]1CCc2sc3ncnc(O[C@H]4CC[C@H](N5CCOCC5)CC4)c3c21	enzyme activity, inhibitor		10 µM		inhibition	60%
Cc1cccc(O[C@H]2CCC[C@@H](C(C)CNCc3ccncc3)C2)c1 (relative stereo)	enzyme activity, inhibitor		10 µM		inhibition	-2%
COc1ccc(NC(=O)Nc2ccc3c(c2)C(=O)N(C(C)CO)CC(C)C(CN(C)Cc2ccc4c(c2)OCO4)O3)cc1 (centres unmarked)	kinase activity, KinaseProfiler		0.03 µM, species human	relative to: control	remaining activity	92%
Cc1nc2c(F)cc(-c3nc(Nc4ccc(CNC(=O)CCCCCCC(=O)NO)cc4)ncc3F)cc2n1C(C)C	enzyme activity, inhibitor		1 µM		inhibition	77%
C=CC(=O)N1CCc2ccc(-n3c(=O)ccc4cnc5ccc(-c6cnn(C)c6)cc5c43)cc21	KINOMEscan		1 µM	relative to: DMSO control	remaining binding	75%

Repeated from above:
Structure (SMILES)	assay	test system	setting	scale	measurement	value
NC(=O)[C@@H](O)C[C@H]1CCc2sc3ncnc(O[C@H]4CC[C@H](N5CCOCC5)CC4)c3c21	enzyme activity, inhibitor		10 µM		inhibition	60%
COc1ccc(NC(=O)Nc2ccc3c(c2)C(=O)N(C(C)CO)CC(C)C(CN(C)Cc2ccc4c(c2)OCO4)O3)cc1 (centres unmarked)	kinase activity, KinaseProfiler		0.03 µM, species human	relative to: control	remaining activity	92%
